Results gathered from unrelated publications.
Every numbered part comes from another study and shows a few of its results, in no order.
UniProt O75582, sequence (whole entry, looked up): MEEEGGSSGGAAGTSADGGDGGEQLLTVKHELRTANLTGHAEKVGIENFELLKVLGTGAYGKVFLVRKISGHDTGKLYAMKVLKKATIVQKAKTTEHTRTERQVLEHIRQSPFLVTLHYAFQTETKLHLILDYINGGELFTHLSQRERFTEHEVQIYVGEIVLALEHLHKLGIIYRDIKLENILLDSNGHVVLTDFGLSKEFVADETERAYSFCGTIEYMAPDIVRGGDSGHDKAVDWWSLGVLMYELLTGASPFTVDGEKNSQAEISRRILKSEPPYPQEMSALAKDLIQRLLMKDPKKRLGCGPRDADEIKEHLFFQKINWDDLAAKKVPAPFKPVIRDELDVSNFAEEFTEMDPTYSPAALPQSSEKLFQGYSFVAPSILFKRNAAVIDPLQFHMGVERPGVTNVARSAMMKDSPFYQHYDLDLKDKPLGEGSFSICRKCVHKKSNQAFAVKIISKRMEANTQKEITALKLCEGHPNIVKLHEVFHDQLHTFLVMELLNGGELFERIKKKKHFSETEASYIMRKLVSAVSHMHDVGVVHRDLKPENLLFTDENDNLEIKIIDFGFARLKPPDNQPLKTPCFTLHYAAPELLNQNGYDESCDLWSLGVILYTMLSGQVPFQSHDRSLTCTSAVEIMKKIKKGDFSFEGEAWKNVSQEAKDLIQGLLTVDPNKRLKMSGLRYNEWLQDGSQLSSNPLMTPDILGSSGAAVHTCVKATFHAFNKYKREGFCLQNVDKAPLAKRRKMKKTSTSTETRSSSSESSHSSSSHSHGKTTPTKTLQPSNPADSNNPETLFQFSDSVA
UniProt Q9NQU5, sequence (whole entry, looked up): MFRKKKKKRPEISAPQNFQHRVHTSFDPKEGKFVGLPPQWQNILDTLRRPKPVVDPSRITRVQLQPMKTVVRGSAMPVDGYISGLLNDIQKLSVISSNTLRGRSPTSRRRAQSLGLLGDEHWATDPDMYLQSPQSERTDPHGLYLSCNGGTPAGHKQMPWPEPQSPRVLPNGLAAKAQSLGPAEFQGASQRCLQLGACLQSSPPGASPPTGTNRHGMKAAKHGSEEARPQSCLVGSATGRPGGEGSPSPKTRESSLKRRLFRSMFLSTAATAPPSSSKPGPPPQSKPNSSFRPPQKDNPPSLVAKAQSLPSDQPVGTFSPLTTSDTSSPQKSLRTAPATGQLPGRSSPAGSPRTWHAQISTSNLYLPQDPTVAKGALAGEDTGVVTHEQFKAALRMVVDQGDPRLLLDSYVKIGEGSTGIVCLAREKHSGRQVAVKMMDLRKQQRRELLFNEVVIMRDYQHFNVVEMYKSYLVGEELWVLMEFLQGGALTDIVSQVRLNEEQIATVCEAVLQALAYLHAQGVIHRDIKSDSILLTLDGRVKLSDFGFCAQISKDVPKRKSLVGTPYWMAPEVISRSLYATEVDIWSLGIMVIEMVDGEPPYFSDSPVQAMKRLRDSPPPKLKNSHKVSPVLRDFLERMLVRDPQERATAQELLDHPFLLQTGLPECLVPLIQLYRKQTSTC
UniProt Q8IZF5, sequence (whole entry, looked up): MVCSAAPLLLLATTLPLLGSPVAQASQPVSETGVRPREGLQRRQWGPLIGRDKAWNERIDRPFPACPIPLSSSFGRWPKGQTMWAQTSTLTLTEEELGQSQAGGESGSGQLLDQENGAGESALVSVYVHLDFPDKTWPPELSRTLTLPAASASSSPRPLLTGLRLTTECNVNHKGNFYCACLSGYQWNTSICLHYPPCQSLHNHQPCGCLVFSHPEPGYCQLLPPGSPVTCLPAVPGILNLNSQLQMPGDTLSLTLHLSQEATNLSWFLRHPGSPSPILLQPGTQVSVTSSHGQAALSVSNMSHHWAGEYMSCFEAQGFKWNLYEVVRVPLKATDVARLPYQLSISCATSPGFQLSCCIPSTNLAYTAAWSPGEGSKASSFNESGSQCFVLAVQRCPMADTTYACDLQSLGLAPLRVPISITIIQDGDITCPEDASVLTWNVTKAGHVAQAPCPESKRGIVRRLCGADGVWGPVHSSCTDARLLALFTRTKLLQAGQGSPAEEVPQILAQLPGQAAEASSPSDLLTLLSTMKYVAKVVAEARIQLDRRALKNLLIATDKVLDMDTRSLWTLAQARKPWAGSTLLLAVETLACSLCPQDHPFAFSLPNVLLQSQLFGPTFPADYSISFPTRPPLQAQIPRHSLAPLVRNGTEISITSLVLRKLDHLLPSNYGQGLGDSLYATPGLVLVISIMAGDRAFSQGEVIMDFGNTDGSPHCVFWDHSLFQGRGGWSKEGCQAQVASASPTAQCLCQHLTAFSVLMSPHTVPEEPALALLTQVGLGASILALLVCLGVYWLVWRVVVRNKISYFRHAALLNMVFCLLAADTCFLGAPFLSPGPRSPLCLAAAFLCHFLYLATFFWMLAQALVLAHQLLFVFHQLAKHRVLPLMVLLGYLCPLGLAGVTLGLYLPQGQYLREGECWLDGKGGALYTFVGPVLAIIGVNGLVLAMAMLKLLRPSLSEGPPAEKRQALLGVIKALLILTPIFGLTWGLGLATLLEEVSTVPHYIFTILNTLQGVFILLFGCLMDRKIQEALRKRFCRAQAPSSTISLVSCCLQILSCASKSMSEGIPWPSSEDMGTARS
UniProt O43283, sequence (whole entry, looked up): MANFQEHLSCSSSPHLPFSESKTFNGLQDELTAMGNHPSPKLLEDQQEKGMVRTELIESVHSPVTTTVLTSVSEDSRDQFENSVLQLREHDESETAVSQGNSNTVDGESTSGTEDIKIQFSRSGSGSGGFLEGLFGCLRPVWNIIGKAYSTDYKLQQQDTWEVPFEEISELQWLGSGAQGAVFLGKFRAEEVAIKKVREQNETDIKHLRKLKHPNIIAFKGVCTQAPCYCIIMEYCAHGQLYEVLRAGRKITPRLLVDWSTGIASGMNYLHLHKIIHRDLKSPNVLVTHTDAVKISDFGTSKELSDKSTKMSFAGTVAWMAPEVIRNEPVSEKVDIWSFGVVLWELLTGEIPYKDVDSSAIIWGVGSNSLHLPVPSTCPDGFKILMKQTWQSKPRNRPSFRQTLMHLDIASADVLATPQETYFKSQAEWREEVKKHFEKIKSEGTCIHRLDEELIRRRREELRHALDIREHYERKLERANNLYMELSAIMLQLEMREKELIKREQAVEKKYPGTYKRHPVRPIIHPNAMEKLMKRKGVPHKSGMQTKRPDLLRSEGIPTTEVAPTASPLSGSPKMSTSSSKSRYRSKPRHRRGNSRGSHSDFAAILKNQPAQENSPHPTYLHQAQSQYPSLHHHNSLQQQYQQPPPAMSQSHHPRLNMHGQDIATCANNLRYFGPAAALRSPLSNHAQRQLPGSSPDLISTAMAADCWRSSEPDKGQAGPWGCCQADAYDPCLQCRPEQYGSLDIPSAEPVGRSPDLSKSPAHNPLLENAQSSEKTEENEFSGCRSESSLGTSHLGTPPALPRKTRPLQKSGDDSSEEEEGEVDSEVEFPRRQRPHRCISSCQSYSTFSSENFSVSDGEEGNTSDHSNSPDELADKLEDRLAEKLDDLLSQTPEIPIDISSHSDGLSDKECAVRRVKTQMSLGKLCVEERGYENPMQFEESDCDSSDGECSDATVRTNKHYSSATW
UniProt P25103, sequence (whole entry, looked up): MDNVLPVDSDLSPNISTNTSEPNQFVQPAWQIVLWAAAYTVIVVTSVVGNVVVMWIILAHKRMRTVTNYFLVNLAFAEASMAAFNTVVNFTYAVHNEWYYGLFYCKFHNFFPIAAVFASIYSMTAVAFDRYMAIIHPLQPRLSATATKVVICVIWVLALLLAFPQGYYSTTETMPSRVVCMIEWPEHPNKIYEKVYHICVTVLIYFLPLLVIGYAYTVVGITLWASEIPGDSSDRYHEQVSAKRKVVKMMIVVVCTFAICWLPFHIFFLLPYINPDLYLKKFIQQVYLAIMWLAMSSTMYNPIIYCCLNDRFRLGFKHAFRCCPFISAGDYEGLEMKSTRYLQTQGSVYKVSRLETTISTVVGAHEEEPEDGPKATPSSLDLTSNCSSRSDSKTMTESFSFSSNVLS
UniProt Q96G91, sequence (whole entry, looked up): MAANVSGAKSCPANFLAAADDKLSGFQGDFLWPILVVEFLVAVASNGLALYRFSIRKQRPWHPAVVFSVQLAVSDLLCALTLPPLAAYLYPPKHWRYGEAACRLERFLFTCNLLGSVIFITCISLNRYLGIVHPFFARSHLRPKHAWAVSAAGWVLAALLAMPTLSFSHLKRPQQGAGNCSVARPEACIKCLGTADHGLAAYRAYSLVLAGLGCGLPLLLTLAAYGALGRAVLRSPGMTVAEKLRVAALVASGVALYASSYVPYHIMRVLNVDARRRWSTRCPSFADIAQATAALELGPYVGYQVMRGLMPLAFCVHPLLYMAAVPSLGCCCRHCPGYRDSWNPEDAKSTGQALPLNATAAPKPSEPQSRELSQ

Block 1
SMILES: Cc1nccc(COC(=O)N2C[C@@H]3[C@@H](CNC(=O)c4ccc5[nH]nnc5c4)[C@@H]3C2)n1
Read-out: cell-free assay
Technique: competition with immobilised ligand
Concentration: 1 µM
target | remaining binding [%]
CDK16 (Homo sapiens, UniProt Q00536) | 78
TSSK1B (Homo sapiens, UniProt Q9BXA7) | 91
PAK4 (Homo sapiens, UniProt O96013) | 100
Ribosomal protein S6 kinase alpha-5, N-terminal kinase domain (RPS6KA5, Homo sapiens, UniProt O75582) | 95
PAK6 (Homo sapiens, UniProt Q9NQU5) | 95
TIE1 (Homo sapiens, UniProt P35590) | 100
MAP3K13 (Homo sapiens, UniProt O43283) | 65
AKT3 (Homo sapiens, UniProt Q9Y243) | 100

Block 2
Target: Ribosomal protein S6 kinase alpha-5 (RPS6KA5, Homo sapiens, UniProt O75582)
Read-out: enzyme activity
Action: inhibitor
Concentration: 0.5 µM
Relative to: control
Structure (SMILES) | remaining activity
O=c1cc(-c2cccc3c2Sc2ccccc2S3)oc(N2CCOCC2)c1 | 117%
CCN(CC)C(=O)c1ccc(Nc2nc(OCC3CCCCC3)c3[nH]cnc3n2)cc1 | 89.8%
COc1cc2c(cc1OC)-c1[nH]nc(Nc3cccc(F)c3)c1C2 | 96%
c1ccc(-c2[nH]ncc2-c2ccnc3ccccc23)nc1 | 102%
Cc1cn(-c2cc(NC(=O)c3ccc(C)c(Nc4nccc(-c5cccnc5)n4)c3)cc(C(F)(F)F)c2)cn1 | 95.6%
CCOc1nc(NC(=O)Cc2cc(OC)ccc2OC)cc(N)c1C#N | 101%
CN(C)C[C@H]1CCn2c(c(C3=C(c4cn(C)c5ccccc45)C(=O)NC3=O)c3ccccc32)C1 | 24.8%
N#Cc1c(NC(=O)c2cccc3ccccc23)sc2c1CCCC2 | 99.6%
CCN(CC)CCNC(=O)c1c(C)[nH]c(/C=C2\C(=O)Nc3ccc(Cl)cc32)c1C | 59%
COc1cc2ncnc(Nc3ccc(O)c(Br)c3)c2cc1OC | 93.4%
Ic1cccc(CSc2nnc(-c3ccncc3)o2)c1 | 97.2%
Cc1nc2cc3nc(-c4cccs4)cnc3cc2n1C | 109%
O=C1c2ccccc2-c2n[nH]c3cccc1c23 | 79.5%
Nc1cccc(-c2cc3c(Oc4cccc(O)c4)ncnc3[nH]2)c1 | 83.6%
c1ccc(-c2cnc(Nc3ccc(OCCN4CCCC4)cc3)s2)cc1 | 104%
Cc1cc2ncc(-c3ccccc3)nc2cc1C | 96.4%
N#C/C(=C\c1ccc(O)c(O)c1)C(=O)NCc1ccccc1 | 102%
O=C(NC(NC(=S)Nc1ccc(F)c([N+](=O)[O-])c1)C(Cl)(Cl)Cl)C(c1ccccc1)c1ccccc1 (stereo not drawn) | 113%
CN([C@@H](Cc1ccc(OS(=O)(=O)c2cccc3cnccc23)cc1)C(=O)N1CCN(c2ccccc2)CC1)S(=O)(=O)c1cccc2cnccc12 | 100%
COc1cc2ncnc(Nc3cccc(Cl)c3)c2cc1OC | 97.8%

Block 3
Target: Calcium/calmodulin-dependent protein kinase type II subunit alpha (CAMK2A, Homo sapiens, UniProt Q9UQM7)
UniProt Q9UQM7, sequence (whole entry, looked up): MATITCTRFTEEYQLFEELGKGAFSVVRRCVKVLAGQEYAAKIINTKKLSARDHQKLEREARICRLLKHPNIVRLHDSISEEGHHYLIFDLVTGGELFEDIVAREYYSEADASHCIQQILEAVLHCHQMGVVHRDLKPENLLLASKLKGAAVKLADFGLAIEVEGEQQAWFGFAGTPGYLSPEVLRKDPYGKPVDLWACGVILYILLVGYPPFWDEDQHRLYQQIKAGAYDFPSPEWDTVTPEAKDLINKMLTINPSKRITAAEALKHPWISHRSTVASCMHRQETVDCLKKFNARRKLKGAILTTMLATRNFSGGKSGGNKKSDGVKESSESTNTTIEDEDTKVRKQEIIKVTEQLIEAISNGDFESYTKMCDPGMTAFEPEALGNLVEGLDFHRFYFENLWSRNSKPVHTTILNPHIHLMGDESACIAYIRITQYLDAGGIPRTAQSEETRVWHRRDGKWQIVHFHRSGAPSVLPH
Read-out: enzyme activity
Action: inhibitor
Concentration: 10 µM
Structure (SMILES) | inhibition [%]
COc1nccnc1NS(=O)(=O)c1ccc(N)cc1 | 0
O=C1Nc2ccccc2C1=O | -6
CCOC(=O)/C=C/c1ccccc1 | -25
C[C@@H]1CN(C(=O)c2ccc(NC(=O)c3cc(O[C@H](C)c4c(Cl)ccc(F)c4Cl)c(N)nn3)cc2)C[C@H](C)N1 | 10
O=C(O)/C=C/C=C/c1ccccc1 | -1
COc1cc(C(C)=O)ccc1O | -11
CC(=O)OCC(=O)NCCCOc1cccc(CN2CCCCC2)c1 | -4
COc1cc(C=O)ccc1O | -9

Block 4
SMILES: N=C(N)NC(=O)c1cnn(-c2cccc3ncccc23)c1C1CC1
Read-out: β-arrestin recruitment
Action: agonist
Technique: PRESTO-Tango
Concentration: 10 µM
Relative to: untreated
target | fold over basal
G-protein coupled receptor 15 (Homo sapiens, UniProt P49685) | 1.13
Adhesion G-protein coupled receptor F3 (ADGRF3, Homo sapiens, UniProt Q8IZF5) | 0.83
NPY4R (Homo sapiens, UniProt P50391) | 1
ADGRG6 (Homo sapiens, UniProt Q86SQ4) | 1.39
NPBWR1 (Homo sapiens, UniProt P48145) | 1.02
Apelin receptor (APLNR, Homo sapiens, UniProt P35414) | 1.12
TACR1 (Homo sapiens, UniProt P25103) | 1.48 fold
P2Y purinoceptor 11 (P2RY11, Homo sapiens, UniProt Q96G91) | 1.89
NTSR1 (Homo sapiens, UniProt P30989) | 1

A few entries again (block 1):
target | remaining binding [%]
TSSK1B (Homo sapiens, UniProt Q9BXA7) | 91
PAK4 (Homo sapiens, UniProt O96013) | 100
Ribosomal protein S6 kinase alpha-5, N-terminal kinase domain (RPS6KA5, Homo sapiens, UniProt O75582) | 95
PAK6 (Homo sapiens, UniProt Q9NQU5) | 95
TIE1 (Homo sapiens, UniProt P35590) | 100
MAP3K13 (Homo sapiens, UniProt O43283) | 65
AKT3 (Homo sapiens, UniProt Q9Y243) | 100
